Measured values collected from several papers.
A part holds a random share of what one study measured. Positions count from the first letter of the parent shown.

Series 1 — technique: RNA Bind-n-Seq; molecule type: RNA; medium: in vitro; concentration: 1 µM; setting: whole 134-nt RNA, ends assumed; with: 150 mM KCl; relative to: input library; direction: higher = stronger binding; endpoint: log2 enrichment
Target: Ras GTPase-activating protein-binding protein 1, C-terminal RGG region (G3BP1, Homo sapiens, UniProt Q13283)
Chain of UniProt Q13283 (whole entry, looked up): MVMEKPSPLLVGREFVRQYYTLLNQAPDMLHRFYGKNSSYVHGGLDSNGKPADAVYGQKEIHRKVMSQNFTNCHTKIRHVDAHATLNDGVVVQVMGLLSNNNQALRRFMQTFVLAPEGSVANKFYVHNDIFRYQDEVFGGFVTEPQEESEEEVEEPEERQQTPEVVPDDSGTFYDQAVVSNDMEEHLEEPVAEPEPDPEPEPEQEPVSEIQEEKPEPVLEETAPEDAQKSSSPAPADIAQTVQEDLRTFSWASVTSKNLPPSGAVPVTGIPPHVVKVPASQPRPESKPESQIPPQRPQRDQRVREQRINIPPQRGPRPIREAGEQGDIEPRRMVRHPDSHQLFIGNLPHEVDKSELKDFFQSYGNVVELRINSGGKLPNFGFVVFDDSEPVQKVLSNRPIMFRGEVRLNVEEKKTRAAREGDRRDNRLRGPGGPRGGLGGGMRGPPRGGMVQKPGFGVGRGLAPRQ
All sequences stand within: GGGAGUUCUACAGUCCGACGAUC … UGGAAUUCUCGGGUGUCAAGG
AGUCCUGUGCUACACAUCGUAUGUACCGAAUCGGGUUUUUUUGGGUUUGGGUUUGGGAAAGUAUUAUGUUACGCCGUUCGGAUCUGCACU: 1.15
AAGUCCUGUGCUACACAUCGUAUGUACCGAAUCGGGAGGGAAAGGGUUUUUUUGGGAAAGUAUUAUGUUACGCCGUUCGGAUCUGCACUU: 0.562
GUCCUGUGCUACACAUCGUAUGUACCGAAUCGGGUUUUUGGUUUUUGGGUUUUUGGGGAAAGUAUUAUGUUACGCCGUUCGGAUCUGCAC: -0.936
UGGGAGGUGUAUUUUGUUUAUUUUUUUAGCUCAUUUCCAGGGGUGGGAAUUUUUUUUUAAUAUGUGUCAUGAAUAAAGUUGUUUUUGAAA: 2.76
GGGCCCUGGUGGCAUGCGGGGAGGAAGAGGUGGCCUCAUGGAUCGUGGUGGUCCCGGUGGAAUGUUCAGAGGUGGCCGUGGUGGAGACAG: 2.14
UGGCCCUGGUGGCAUGCGGGGAGGAAGAGGUGGCCUCAUGGAUCGUGGUGGUCCCGGUGGAAUGUACAGAGGUGGCCGUGGUGGAGACAG: 2.8
CUCAAGUCCUGUGCUACACAUCGUAUGUACCGAAUCGGGAAGGGAAGGGAAGGGAAAGUAUUAUGUUACGCCGUUCGGAUCUGCACUUCC: 2.95
UUCUCUCUCUCCCUUUGCAGCCGCUGUACAACCAGCCCUCCGACACCCGGCAGUAUCAUGAGAACAUCAAAAUGUGAGUGCUCGCGGGCA: -0.0944
GUCCUGUGCUACACAUCGUAUGUACCGAAUCGGGGAAAAAGGGGAAAAAGGGGAGGGGAAAGUAUUAUGUUACGCCGUUCGGAUCUGCAC: 1.79

Series 2 — technique: RNA Bind-n-Seq; molecule type: RNA; medium: in vitro; concentration: 365 nM; relative to: no-protein control; direction: higher = stronger binding; endpoint: RBNS enrichment (R)
Target: RNA binding protein fox-1 homolog 2, RRM domain, GST-SBP tag (RBFOX2, Homo sapiens, UniProt O43251-10, residues 100-194)
Setting: natural RNA segment, single round, ends assumed
All sequences stand within: GGGAGUUCUACAGUCCGACGAUC … UGGAAUUCUCGGGUGCCAA
UUCUUGACCAUUCAUUUUAUCACUUCUAACCUUGAAACAUGUGGAAGUAGCUAUGUUCCUGACUGUUUCCUCUGCCAGACAAUGAACUCUGGAGAUCAGGGAGCUUCGUG: 0.492
ACUGGGAAAAUACAAAAGCUCUGGGCUAAUCUAUAAAAACUUACCCUGAAAUAUUAAGGGCAGUUUGCUUCUAGUUUGGGGAUUGCGCUAGCCCAAUGAAGGUGAUGAAG: 0.43
AGGAGAGGUGGGAAAGGACACACUGCCACGAGAAACCACCCGACGGCUGGAGAGGUGGCUCAGUGGUUAAAGGCACUCACUGCUCUUUCCAAAGGACCUGGUUUGAUUCC: 0.497
AUUCCCACCCACGACUCACAGGCAUUCCUCCCACAGCCCUUUCAUUUCCUCCCCACCCCACUCCCCAAAUACAGAGGUCUGCUUUGAAGCGGAGACCAUUUCCAGGCCUU: 1.1
UGUCCUAAUCAUACUUAAACAUCAGGCAGGUGGGGUUCAGUGGUAAGCGAAGGGAUUAUUAGCAAGGUAAUGCCUGUGUAUGGUCAUAUAGGCACAAAUGCAGAACACCC: 0.773
CUUAACUGUGGCAAAAAUAAUGACAUGUAGCAAAGAUUUUAAAACAAAGUAUUUUUUCUUUUAUAAAUUGUGUUGUGUUGUGUGAUAUUAUUGAUUGCGGCUCCCUGACC: 0.567
AGACAAAGAAACAAAUUCCUAUGACCAAAUUGCUUGCCUACAGUUCCCUGCAGUAAUUGUAUGAUCUCACCCAGUGUGCAAUUUGUGAAAAUGAACCAAAUGUCAUUACU: 0.514
GACAGCAGGGGAGGAGGAAGAGCUGUGGUUUGUAACUUGUUCAACUCAGGCAAUAAGCGAUUUUAGCUUUAUUUAAAGUCUUCUGUCCAGCUUUAAGCACUUUGUAAGAC: 0.711

Series 3 — technique: universal PBM; molecule type: double-stranded DNA, one strand shown; medium: in vitro; concentration: not given; direction: higher = stronger binding; endpoint: E-score
Target: Sal-like protein 4, full length isoform B (SALL4, Homo sapiens, UniProt Q9UJQ4-2, residues 1-616)
Setting: 8-mer, flanks averaged, mean of replicates
CGAACAGC: -0.159
ACGCTGAC: -0.161
CTGGTCGC: -0.198
AGTGGGGG: -0.069
AGATGAAG: 0.0376
ACATAAAC: 0.331
AGGGACCT: -0.174
CTGGCTCC: -0.291
AAAGACAA: 0.212
GCTTCAAA: 0.145
AAGCCTTA: 0.0182
CGCAAGTC: -0.212
ACTAAACA: 0.227
CTTGCAAA: 0.157
CCCGCACC: -0.336
TAACCCCA: -0.133
GACCCCAC: -0.162
GGCCCGAC: -0.37
AGGCCCAG: -0.233
CGCTGCCA: -0.168

Series 4 — technique: protein binding microarray; molecule type: double-stranded DNA, one strand shown; medium: in vitro; concentration: not given; relative to: not given; direction: higher = stronger binding; endpoint: E-score
Target: Histone acetyltransferase KAT6A, both winged helices, GST fusion (KAT6A, Homo sapiens, UniProt Q92794, residues 1-181)
Setting: 8-mer, flanks averaged, mean of 2 arrays, mostly near background
Target sequence (chain): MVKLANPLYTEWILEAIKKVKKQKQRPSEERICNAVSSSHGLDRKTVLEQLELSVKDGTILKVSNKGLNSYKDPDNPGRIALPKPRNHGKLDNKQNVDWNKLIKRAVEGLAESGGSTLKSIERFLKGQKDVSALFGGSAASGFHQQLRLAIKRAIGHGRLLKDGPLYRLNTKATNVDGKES
ACTCAACG: -0.0524
CATTGCAC: -0.162
CAGACTAG: -0.0217
AACTCGCT: 0.0445
CGAGCACC: 0.0118
CAGGTCGA: -0.22
TCGTGGAA: -0.0972
CTTCCAGA: -0.151
AGGCTCCC: -0.238
AATAAGGA: -0.259
AGCCTCTG: -0.247
AATTAGAG: -0.122
AAAACACT: 0.0844
ATTCCTTC: -0.0712
CCGTTATC: 0.152
ACCCGAGT: 0.1
GGTATGGA: 0.0707
AAATTCGC: -0.0407
CGGTGCCA: 0.117
GATCTGAA: -0.0407

Series 5 — target: CCNF, cyclin fold, Cln2 fusion (human); technique: yeast growth competition, sequencing; medium: yeast; setting: strong parent motif; relative to: not given; direction: higher = stronger binding; endpoint: normalised enrichment score
Starting sequence: SLBP docking peptide (human); ARYKRKLLINDFG
N10Q: 1.76
K4G: 1.16
R5I: 1.82
K6D: 0.323
R2D: 1.76
I9R: 1.5
Y3T: 2.57
R5E: 1.29
I9N: 1.63
K6T: 1.78
R2Y: 1.69
A1C: 1.56
R5P: 0.734
G13F: 2.09
K6G: 1.3
R2M: 1.04
N10E: 3.17
K4W: 2.84
I9L: 2.15
D11S: 1.78
R5G: 1.37
A1W: 2.23

Repeated from above (series 3):
ACATAAAC: 0.331
AGGGACCT: -0.174
CTGGCTCC: -0.291
AAAGACAA: 0.212
GCTTCAAA: 0.145
AAGCCTTA: 0.0182
CGCAAGTC: -0.212
ACTAAACA: 0.227
CTTGCAAA: 0.157
CCCGCACC: -0.336
TAACCCCA: -0.133
GACCCCAC: -0.162
GGCCCGAC: -0.37
